# Measurements collected from several papers.
# Compare with care: the assays were run in different laboratories. ± gives the spread as reported.
# PIM1: Serine/threonine-protein kinase pim-1 (PIM1, Homo sapiens, UniProt P11309)
# UniProt P11309, sequence (whole entry, looked up): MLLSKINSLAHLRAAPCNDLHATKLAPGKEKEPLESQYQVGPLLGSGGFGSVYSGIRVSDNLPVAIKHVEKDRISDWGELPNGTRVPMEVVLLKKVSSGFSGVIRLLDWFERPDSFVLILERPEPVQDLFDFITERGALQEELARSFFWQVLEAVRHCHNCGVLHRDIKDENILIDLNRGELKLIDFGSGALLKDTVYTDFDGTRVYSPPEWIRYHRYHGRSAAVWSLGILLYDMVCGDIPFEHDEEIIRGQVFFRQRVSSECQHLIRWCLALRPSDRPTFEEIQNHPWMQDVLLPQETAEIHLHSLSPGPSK
# HDAC7: Histone deacetylase 7 (HDAC7, Homo sapiens, UniProt Q8WUI4)
# UniProt Q8WUI4, sequence (whole entry, looked up): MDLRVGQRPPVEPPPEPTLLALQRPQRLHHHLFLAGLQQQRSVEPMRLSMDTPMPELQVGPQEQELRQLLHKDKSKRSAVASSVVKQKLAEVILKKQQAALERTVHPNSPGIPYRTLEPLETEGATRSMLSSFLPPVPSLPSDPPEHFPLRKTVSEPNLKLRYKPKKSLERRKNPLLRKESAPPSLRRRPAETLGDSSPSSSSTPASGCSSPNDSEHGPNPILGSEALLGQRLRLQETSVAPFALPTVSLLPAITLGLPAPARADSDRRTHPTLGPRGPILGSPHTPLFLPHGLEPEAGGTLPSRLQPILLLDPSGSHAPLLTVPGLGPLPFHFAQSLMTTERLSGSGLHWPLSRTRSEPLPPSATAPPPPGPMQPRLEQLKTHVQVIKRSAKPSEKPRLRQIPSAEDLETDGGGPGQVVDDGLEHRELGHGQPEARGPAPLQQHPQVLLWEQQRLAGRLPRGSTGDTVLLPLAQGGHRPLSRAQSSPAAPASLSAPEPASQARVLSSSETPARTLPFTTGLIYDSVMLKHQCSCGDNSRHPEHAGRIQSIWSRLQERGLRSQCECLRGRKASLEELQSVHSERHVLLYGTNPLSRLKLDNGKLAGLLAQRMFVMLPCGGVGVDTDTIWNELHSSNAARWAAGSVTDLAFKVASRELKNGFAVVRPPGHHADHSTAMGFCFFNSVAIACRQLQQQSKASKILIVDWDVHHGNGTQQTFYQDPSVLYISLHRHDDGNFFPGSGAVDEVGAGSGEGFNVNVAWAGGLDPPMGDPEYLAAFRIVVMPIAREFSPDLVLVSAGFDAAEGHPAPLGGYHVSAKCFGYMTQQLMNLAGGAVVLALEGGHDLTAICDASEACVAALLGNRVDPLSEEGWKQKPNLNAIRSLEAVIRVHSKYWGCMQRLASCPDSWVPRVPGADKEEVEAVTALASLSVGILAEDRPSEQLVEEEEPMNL
# Gria2/Glutamate receptor 3: Gria2/Glutamate receptor 3 (Rattus norvegicus, UniProt P19491+P19492)
# UniProt P19492, sequence (whole entry, looked up): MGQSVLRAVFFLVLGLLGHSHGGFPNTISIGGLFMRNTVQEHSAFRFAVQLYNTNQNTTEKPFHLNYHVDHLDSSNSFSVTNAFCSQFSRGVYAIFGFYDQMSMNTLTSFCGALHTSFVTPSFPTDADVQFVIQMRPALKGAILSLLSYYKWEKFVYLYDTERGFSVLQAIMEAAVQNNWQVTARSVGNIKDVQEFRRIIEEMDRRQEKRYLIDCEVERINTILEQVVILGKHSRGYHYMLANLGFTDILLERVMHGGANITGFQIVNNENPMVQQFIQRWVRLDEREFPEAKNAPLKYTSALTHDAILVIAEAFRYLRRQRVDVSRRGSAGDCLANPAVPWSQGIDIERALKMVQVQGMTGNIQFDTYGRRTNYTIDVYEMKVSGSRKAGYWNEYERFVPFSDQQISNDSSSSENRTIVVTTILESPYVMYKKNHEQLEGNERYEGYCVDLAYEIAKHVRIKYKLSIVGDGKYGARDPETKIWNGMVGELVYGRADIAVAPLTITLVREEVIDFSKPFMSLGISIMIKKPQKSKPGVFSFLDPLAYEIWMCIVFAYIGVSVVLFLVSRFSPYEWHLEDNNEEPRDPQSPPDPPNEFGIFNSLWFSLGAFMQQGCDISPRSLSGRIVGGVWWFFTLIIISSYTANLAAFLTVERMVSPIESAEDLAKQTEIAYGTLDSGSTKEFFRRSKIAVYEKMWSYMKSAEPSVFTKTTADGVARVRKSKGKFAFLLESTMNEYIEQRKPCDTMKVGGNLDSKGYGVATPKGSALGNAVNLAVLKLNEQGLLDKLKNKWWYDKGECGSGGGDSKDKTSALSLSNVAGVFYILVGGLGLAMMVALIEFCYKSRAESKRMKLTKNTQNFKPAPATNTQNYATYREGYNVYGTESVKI
# UniProt P19491, sequence (whole entry, looked up): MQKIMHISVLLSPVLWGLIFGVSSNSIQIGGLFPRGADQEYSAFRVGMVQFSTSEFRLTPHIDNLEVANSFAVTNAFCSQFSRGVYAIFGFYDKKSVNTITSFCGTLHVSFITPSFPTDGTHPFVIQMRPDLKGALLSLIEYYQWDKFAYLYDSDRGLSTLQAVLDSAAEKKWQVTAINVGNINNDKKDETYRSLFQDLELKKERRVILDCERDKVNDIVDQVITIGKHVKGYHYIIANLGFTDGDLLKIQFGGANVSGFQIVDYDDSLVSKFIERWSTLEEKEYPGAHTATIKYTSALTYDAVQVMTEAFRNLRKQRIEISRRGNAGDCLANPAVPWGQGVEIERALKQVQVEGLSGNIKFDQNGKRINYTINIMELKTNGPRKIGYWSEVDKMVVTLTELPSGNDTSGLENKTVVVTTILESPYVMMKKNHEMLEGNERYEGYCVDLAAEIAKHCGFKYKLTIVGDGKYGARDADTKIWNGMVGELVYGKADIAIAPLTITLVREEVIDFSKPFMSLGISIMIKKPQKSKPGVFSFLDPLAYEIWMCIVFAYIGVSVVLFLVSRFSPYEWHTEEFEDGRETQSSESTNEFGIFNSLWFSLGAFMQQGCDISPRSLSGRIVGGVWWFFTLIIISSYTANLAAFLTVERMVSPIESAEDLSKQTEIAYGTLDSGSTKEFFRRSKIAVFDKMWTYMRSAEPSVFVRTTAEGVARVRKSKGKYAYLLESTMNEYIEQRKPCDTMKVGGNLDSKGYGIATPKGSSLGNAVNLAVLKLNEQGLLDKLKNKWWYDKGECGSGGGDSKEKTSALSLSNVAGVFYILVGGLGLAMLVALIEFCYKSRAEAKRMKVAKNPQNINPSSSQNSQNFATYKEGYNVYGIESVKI
# UniProt P03070, sequence (whole entry, looked up): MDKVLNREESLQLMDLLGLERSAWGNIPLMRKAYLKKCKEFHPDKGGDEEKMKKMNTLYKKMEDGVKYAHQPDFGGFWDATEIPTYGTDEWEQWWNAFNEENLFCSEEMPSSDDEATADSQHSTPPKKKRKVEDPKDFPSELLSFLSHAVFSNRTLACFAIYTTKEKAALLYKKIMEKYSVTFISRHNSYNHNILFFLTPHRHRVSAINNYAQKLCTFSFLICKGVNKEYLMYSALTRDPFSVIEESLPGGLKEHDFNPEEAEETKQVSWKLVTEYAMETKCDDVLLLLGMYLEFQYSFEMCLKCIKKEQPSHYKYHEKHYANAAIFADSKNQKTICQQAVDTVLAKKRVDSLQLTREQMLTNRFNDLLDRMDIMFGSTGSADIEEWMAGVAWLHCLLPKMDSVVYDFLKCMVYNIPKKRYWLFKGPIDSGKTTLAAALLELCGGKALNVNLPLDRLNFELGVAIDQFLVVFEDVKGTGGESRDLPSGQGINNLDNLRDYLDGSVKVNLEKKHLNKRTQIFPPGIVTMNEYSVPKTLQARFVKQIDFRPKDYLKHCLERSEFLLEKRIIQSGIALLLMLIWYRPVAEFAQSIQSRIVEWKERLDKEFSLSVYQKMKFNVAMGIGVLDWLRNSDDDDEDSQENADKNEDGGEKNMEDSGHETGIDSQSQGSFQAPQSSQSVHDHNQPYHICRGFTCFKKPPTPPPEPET
# UniProt P14902, sequence (whole entry, looked up): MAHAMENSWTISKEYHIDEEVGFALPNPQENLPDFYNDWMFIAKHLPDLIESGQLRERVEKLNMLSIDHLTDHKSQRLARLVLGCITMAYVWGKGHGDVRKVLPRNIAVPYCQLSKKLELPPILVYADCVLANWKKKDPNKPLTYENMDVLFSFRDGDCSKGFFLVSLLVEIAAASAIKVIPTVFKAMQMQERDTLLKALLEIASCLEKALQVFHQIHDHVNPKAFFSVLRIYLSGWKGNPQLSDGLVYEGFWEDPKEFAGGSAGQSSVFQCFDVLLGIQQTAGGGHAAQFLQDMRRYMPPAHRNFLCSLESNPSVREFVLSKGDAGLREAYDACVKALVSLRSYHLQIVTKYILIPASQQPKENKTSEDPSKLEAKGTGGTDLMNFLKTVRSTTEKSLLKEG
# UniProt P10809, sequence (whole entry, looked up): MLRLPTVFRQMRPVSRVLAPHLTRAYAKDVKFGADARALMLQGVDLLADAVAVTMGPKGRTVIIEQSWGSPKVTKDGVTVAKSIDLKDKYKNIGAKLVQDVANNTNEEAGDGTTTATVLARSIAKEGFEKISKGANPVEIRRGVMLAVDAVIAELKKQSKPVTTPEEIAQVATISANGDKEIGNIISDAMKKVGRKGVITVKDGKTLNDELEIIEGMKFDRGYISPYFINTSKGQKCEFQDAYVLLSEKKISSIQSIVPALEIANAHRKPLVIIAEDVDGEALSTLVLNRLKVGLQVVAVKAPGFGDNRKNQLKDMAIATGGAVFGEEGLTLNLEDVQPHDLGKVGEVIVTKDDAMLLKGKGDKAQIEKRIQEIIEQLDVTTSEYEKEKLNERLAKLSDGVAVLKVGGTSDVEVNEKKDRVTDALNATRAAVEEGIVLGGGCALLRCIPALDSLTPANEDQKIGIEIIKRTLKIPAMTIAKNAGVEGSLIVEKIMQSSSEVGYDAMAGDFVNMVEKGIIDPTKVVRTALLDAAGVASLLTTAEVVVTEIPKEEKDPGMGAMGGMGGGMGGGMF
Structure (SMILES),tested on,test,system,setting,measurement,value
CO[C@@H]1[C@@H](OC(=O)c2ccc(C)[nH]2)[C@@H](O)[C@H](Oc2ccc3c(O)c(NC(=O)c4c[nH]c(C(=O)Nc5c(O)c6ccc(O[C@@H]7OC(C)(C)[C@H](OC)[C@@H](OC(=O)c8ccc(C)[nH]8)[C@H]7O)c(C)c6oc5=O)c4C)c(=O)oc3c2C)OC1(C)C,"Large T antigen (Simian virus 40, UniProt P03070)","fork unwinding, inhibitor",,,IC50,~70 µM
COc1cc(CCC(=O)c2ccc(O)c(O)c2)ccc1O,mushroom tyrosinase,"enzyme activity, inhibitor",,"10 min, added: L-tyrosine",IC50,29 µg/mL
Fc1cccc(COc2ccc(Nc3ncnc4ccc(-c5ccc(N6CCNCC6)cc5)cc34)cc2Cl)c1,Leishmania major,"intracellular amastigote growth, luciferase",RAW264.7 macrophages,,EC50,8.6 µM
C#CCCn1nc(C)c2c(Cl)c(C(=O)NCC3CC(C)=NO3)cnc21 (stereo not drawn),"60 kDa heat shock protein, mitochondrial, with HSP10 (Homo sapiens, UniProt P10809)",HSP60/10-mediated MDH refolding,,"30 min, preincubation before ATP, added: denatured malate dehydrogenase",IC50,> 100 µM
O=C1/C(=N\c2ccccc2Br)c2ccccc2N1Cc1ccc([N+](=O)[O-])cc1,"Phosphatidylinositol 4,5-bisphosphate 3-kinase catalytic subunit alpha isoform (PIK3CA, Homo sapiens, UniProt P42336)","enzyme activity, inhibitor, ADP detection",,,IC50,0.0153 µM
COc1cc2c(c(OC)c1OC)-c1c(cc3c(c1OC)OCO3)CC(C)C(C)C2 (stereo not drawn),"Liver carboxylesterase 1 (CES1, Homo sapiens, UniProt P23141)","enzyme activity, inhibitor",,,IC50,2.41 µM
CCC1C(COc2nccc3cc(C(N)=O)c(OC)cc23)NC(=O)C1F (stereo not drawn),PIM1,"enzyme activity, inhibitor, radiometric",,,IC50,> 10 µM
Cc1nn(-c2cccc(N)c2)c(=O)c2cnc(Nc3ccc(N4CCNCC4)cc3)nc12,"MAP kinase-activated protein kinase 2 (MAPKAPK2, Homo sapiens, UniProt P49137)","kinase activity, inhibitor, SelectScreen kinase profiling",,,IC50,1.46 µM
CCCCCCN(O)C(=O)CCCCC[C@@H]1NC(=O)[C@H]([C@@H](C)CC)NC(=O)[C@H](Cc2ccccc2C(F)(F)F)NC(=O)CCSCc2cccc(n2)CSCCCNC1=O,HDAC7,"enzyme activity, inhibitor, fluorogenic",,,IC50,> 30 µM
Cc1oc(C)c(-c2ccc(N(CC(C)C)CC(C)C)c(NC(=O)NC34CC5CC(CC(C5)C3)C4)c2)c1C(=O)O,"Indoleamine 2,3-dioxygenase 1 (IDO1, Homo sapiens, UniProt P14902)","enzyme activity, inhibitor, recombinant enzyme, refers to: kynurenine",,"20 min, 2% DMSO, added: L-tryptophan",IC50,14 ± 3 µM
CCCCCCCC/C=C\CCCCCCCC(=O)N[C@H](CCCCN)C(=O)O,"glycine transporter 2 (Xenopus tropicalis, UniProt A0A7D9NK84)",[3H]glycine uptake,HEK293F,,IC50,239 µM
O=C(CCNc1cccc2c1C(=O)N(C1CCC(=O)NC1=O)C2=O)NCCOCCOCCOCCN1CCC(CNC(=O)c2cccc(-c3noc(C(F)(F)F)n3)c2)(c2nc(-c3ccccc3)cs2)CC1 (stereo not drawn),HDAC7,"enzyme activity, inhibitor",,,IC50,0.6 µM
CCn1nc(Cl)c2c1-c1cnc(N)c(c1)O[C@H](C)c1cc(F)ccc1-c1nn(C)cc1C2,"Proto-oncogene tyrosine-protein kinase ROS (ROS1, Homo sapiens, UniProt P08922)","enzyme activity, inhibitor, radiometric",,,IC50,0.0012 µM
O=C(O)Cc1cc2c(cc1C(=O)c1cccc(Br)c1)OCO2,Gria2/Glutamate receptor 3,"ion current, antagonist, patch clamp",,,IC50,4.57 µM
Cc1cc(NC2CCN(C)CC2)ccc1-c1cc2c(N3CCC[C@H](C(=O)NCc4ccc(OC(F)(F)F)cc4)C3)ncnc2[nH]1,PIM1,"enzyme activity, inhibitor, mobility shift",,,IC50,5.95 µM
O=C(O)Cc1cc2c(cc1C(=O)c1ccccc1I)OCO2,Gria2/Glutamate receptor 3,"ion current, antagonist, patch clamp",,,IC50,4.79 µM
CCN(CC)CC(=O)Nc1cccc(-n2cc(-c3ccc4ccc(-c5cn(-c6cccc(NC(=O)CN(CC)CC)c6)nn5)cc4c3)nn2)c1,"Mitogen-activated protein kinase 10 (MAPK10, Homo sapiens, UniProt P53779)","enzyme activity, inhibitor",,,IC50,> 10 µM
O=S(=O)(c1ccc(-c2ccc3ncnc(Nc4ccc(OCc5cccc(F)c5)c(Cl)c4)c3c2)cc1)N1CCCC1,Leishmania major,"intracellular amastigote growth, luciferase",RAW264.7 macrophages,,EC50,> 15 µM
